Measurements collected from several papers.
Parts stem from different laboratories: compare values within a part only. Positions count from the first letter of the parent shown.

Series 1
Target: CCNA2, cyclin fold, Cln2 fusion (human)
Technique: yeast growth competition, sequencing
Sample: yeast
Notes: strong parent motif
Reference: not given
Direction: higher = stronger binding
Starting sequence: viral docking peptide; TSVRRALFTGGSD; partner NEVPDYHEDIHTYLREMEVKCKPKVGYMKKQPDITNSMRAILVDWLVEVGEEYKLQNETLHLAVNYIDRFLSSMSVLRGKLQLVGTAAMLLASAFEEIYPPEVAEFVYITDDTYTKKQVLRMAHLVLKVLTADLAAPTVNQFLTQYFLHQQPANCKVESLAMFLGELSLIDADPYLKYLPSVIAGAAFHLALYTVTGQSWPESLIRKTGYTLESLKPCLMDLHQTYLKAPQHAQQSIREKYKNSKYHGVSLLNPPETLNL
Variant | normalised enrichment score
TSQRRALFTGGSD [V3Q] | 0.36
TSVRMALFTGGSD [R5M] | 1.39
TSVRRAYFTGGSD [L7Y] | 0.63
TSVRRALFPGGSD [T9P] | 6.52
TSVRRALFIGGSD [T9I] | 5.87
TSVRRALFTGPSD [G11P] | 6.56
TSVRRNLFTGGSD [A6N] | 5.27
TSVRFALFTGGSD [R5F] | 0.193
TSVRTALFTGGSD [R5T] | 0.767
TYVRRALFTGGSD [S2Y] | 4.94
TSVRAALFTGGSD [R5A] | 0.731
TSVRRAHFTGGSD [L7H] | 0.109
TSVRRALFTGQSD [G11Q] | 6.54
TSVRRALFTGGKD [S12K] | 5.78
TGVRRALFTGGSD [S2G] | 6.51
TSVRRAVFTGGSD [L7V] | 0.29

Series 2
Target: Sox, HMG box (Pigoraptor chileana)
Technique: Spec-seq
Molecule type: double-stranded DNA, one strand shown
Sample: in vitro
Concentration: not given
Notes: whole probe, mean of replicates
Reference: not given
Direction: lower = stronger binding
Constant ends, left off below: GAGTCGTCTCGTCAGCAC … CCGTAGAGCACTCAGGTC
Construct (chain): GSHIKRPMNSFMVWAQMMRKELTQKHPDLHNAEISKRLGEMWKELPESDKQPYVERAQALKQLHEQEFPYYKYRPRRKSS
Sequence | relative binding energy
TCGTGTT | 0.0649 ln ratio
CATGCAG | 0.534 ln ratio
CAACGTT | 0.913 ln ratio
GGACGTT | 1.69 ln ratio
CATGACA | 0.341 ln ratio
ACGTGTT | -0.37 ln ratio
CTACGTT | 0.664 ln ratio
CGAAGTT | 1.03 ln ratio

Series 3
Target: Probable WRKY transcription factor 50, DNA-binding domain (WRKY50, Arabidopsis thaliana, UniProt Q8VWQ5, residues 99-173)
Chain of UniProt Q8VWQ5 (99-173, looked up): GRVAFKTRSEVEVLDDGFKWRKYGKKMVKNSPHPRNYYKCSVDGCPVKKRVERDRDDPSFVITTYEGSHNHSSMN
Technique: DNA-protein interaction ELISA
Molecule type: double-stranded DNA, one strand shown
Sample: in vitro, bacterial lysate
Concentration: not given
Notes: whole dsDNA probe, crude lysate protein
Reference: highest signal in screen
Direction: higher = stronger binding
Sequence | relative absorbance
AAAAAACCACCCAGTCTGTTTCTACTAAAA | 17 % of maximum
AAAAAAGATCTAGGCCTTGGGACTCAAAAA | 23.5 % of maximum
AAAAAAGTTGCCGACGATTGCGGGTTAAAA | 34.2 % of maximum
AAAAAATGATGTTGGCGCATTTAAACAAAA | 17.8 % of maximum
AAAAAATCCATGTTTAAGCTGGTCTCAAAA | 33.9 % of maximum
AAAAAAGCCTTTACCCTTGTTCCTCTAAAA | 14.8 % of maximum
AAAAAATGGTCGATCCGCATGCAGTTAAAA | 20.3 % of maximum
AAAAAAAAGTGCCAACGTTCAAGAAAAA | 17.8 % of maximum

Series 4
Target: UDP-N-acetylglucosamine--peptide N-acetylglucosaminyltransferase 110 kDa subunit (OGT, Homo sapiens, UniProt O15294)
Chain of UniProt O15294 (whole entry, looked up): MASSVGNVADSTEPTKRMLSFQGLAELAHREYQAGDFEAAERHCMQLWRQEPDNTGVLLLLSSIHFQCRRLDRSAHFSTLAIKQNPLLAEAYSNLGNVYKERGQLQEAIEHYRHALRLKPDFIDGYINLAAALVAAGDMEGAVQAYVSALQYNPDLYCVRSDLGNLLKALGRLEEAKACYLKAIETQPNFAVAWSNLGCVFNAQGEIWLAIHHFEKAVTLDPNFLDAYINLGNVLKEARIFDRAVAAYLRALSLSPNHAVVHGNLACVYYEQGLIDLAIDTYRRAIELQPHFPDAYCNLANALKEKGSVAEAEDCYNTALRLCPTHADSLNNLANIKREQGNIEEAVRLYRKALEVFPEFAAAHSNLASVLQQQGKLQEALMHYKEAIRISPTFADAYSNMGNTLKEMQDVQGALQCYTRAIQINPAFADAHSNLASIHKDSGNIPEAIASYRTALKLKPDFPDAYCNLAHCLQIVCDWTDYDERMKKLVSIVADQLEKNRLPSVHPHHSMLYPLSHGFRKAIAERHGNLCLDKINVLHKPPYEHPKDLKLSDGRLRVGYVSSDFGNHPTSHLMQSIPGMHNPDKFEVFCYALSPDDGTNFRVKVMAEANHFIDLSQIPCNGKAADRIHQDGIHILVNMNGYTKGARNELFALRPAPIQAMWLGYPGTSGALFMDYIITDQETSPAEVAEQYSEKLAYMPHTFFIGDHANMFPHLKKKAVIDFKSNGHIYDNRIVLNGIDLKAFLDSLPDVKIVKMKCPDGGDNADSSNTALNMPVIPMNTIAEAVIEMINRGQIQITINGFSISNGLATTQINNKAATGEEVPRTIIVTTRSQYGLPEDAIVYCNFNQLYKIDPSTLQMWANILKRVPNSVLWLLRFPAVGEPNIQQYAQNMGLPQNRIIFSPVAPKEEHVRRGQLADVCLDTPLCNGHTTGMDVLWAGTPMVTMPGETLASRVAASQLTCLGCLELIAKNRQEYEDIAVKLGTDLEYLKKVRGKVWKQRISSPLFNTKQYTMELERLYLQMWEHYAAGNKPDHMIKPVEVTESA
Observed: binding
Technique: phage display NGS
Molecule type: peptide
Notes: panning round 2
Reference: input library
Sequence | minimum log2 enrichment ratio
SPWHHMHHHPTDSVA | 2.24
QPTTSFPPKYLITYT | 4.81
QQDIYPPHYLIELDI | 2.59

For quick reference, copied from above (series 1):
Variant | normalised enrichment score
TSVRMALFTGGSD [R5M] | 1.39
TSVRRNLFTGGSD [A6N] | 5.27
TSVRRAYFTGGSD [L7Y] | 0.63
TSVRFALFTGGSD [R5F] | 0.193
TSQRRALFTGGSD [V3Q] | 0.36
TSVRRAVFTGGSD [L7V] | 0.29
